Literature values, collected from citations in different studies.
Lines come from different studies, so protocols differ. ± marks the error that the study gave.
Chain of UniProt Q8TCC7 (whole entry, looked up): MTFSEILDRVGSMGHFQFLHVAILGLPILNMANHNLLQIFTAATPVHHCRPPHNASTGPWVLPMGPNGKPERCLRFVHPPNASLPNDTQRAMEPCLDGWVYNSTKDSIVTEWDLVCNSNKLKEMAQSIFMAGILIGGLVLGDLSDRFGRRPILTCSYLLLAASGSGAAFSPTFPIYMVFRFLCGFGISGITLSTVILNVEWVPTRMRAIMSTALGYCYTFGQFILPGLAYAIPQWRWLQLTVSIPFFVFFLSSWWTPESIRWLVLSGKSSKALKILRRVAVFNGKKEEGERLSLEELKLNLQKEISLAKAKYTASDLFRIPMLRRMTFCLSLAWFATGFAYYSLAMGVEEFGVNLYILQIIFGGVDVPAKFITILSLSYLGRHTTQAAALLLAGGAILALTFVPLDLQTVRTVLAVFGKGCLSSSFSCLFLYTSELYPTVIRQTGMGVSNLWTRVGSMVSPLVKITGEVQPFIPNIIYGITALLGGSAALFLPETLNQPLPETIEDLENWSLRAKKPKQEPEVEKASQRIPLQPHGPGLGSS

| Structure (SMILES) | target | assay | test system | conditions | how to read | quantity | result |
| --- | --- | --- | --- | --- | --- | --- | --- |
| O=S(=O)(O)C(F)(F)C(F)(F)C(F)(F)C(F)(F)F | CYP2D6 | inhibitor |  | Tox21 screening |  | IC50 | 62.2 ± 21.1 µM |
| Cc1ccc(NC(=O)[C@H]2CCCN(C(=O)c3c(C)cccc3F)[C@H]2c2ccc(NC3CCCC3)cc2)cc1C(F)(F)F | CYP3A4 | inhibitor | human, fasted | oral, 30 mg twice daily, 11 days, together with: midazolam | reference: midazolam alone | midazolam AUC increase | 1.8 fold |
| CN(Cc1cnc2nc(N)nc(N)c2n1)c1ccc(C(=O)N[C@@H](CCC(=O)O)C(=O)O)cc1 | SLC22A8 (Homo sapiens, UniProt Q8TCC7) |  | human | 200 mg/m2, without probenecid |  | renal clearance | 6.2 L/h |
| CN/C(=N/CCSCc1nc[nH]c1C)NC#N | OCT1 |  |  |  |  | Ki | 104 µM |
| C=C(C)[C@@H]1CCC(C)=C[C@H]1c1c(O)cc(CCCCC)cc1O | CYP2E1 human |  | human liver microsomes | 10 µM |  | inhibition | inhibited |
| C=C[C@@H]1C[C@]1(NC(=O)[C@@H]1C[C@@H]2CN1C(=O)[C@H](C(C)(C)C)NC(=O)O[C@@H]1C[C@H]1CCCCCc1nc3ccc(OC)cc3nc1O2)C(=O)NS(=O)(=O)C1CC1 | CYP2D6 |  | human liver microsomes |  |  | IC50 | > 100 µM |
| C[S+]([O-])c1nc2cc(Oc3cccc(Cl)c3Cl)c(Cl)cc2[nH]1 (centres unmarked) | Bcrp, mouse | substrate | Bcrp knockout mice, plasma | dose not given | reference: wild-type mice | plasma concentration | increased |
| O=C(NC(=O)c1c(F)cccc1F)Nc1cc(Cl)c(OC(F)(F)C(F)F)c(Cl)c1 | CYP3A4 | inhibitor |  | Tox21 screening |  | IC50 | inactive |
| Cc1cc(C)c(CNC(=O)c2cc(Cl)c3c(c2C)O[C@@](C)([C@H]2CC[C@H](N(C)C)CC2)O3)c(=O)[nH]1 | CYP3A4 (human) | inhibitor | human liver microsomes | together with: midazolam |  | Ki | 56.4 µM |
| Cc1c(O)cccc1C(=O)N[C@@H](CSc1ccccc1)[C@H](O)CN1C[C@H]2CCCC[C@H]2C[C@H]1C(=O)NC(C)(C)C | first-pass CYP3A human |  |  | concentration not given |  | inhibition | > 75% |
| O=S(=O)([O-])C(F)(F)C(F)(F)C(F)(F)C(F)(F)C(F)(F)C(F)(F)C(F)(F)C(F)(F)F.[K+] | CYP3A4 | inhibitor |  | Tox21 screening |  | IC50 | inactive |
